Measurements pooled from the literature.
Each line is one published result; not all experiments were run side by side.

| SMILES | system | setting | AUC(0-tau) |
| --- | --- | --- | --- |
| CCOc1c([C@H](C)n2nc(C)c3c(N)ncnc32)cc(Cl)c(F)c1[C@@H]1CNC(=O)C1 | human, B-cell malignancies, plasma | oral, 30 mg, day 15, geometric mean | 18.7 µM·h |
| CCCCOCCOc1ccc(-c2ccc3c(c2)/C=C(/C(=O)Nc2ccc([S@@+]([O-])Cc4cncn4CCC)cc2)CCCN3CC(C)C)cc1 | human, moderate impairment matched controls, plasma | oral, 150 mg, day 1, geometric mean | 3980 ng·h/mL |
| CCN1CCN(Cc2ccc(Nc3ncc(F)c(-c4cc(F)c5nc6n(c5c4)[C@H](C)CCC6)n3)nc2)CC1 | human, plasma | 50 mg multiple dosing, mean | 1710 ng·h/mL |
| O=C(O)CCC(=O)O.[2H]C([2H])([2H])Oc1cc(C)c2[nH]ccc2c1CN1CC[C@@H](C2CC2)C[C@H]1c1ccc(C(=O)O)cc1 | human, plasma | 100 mg twice daily, day 10, multiple ascending dose, geometric mean | 46100 ng·h/mL |
| Cc1ncnc2c1ccn2[C@@H]1C[C@H](Oc2cc(C(F)F)c(F)c3c2CNCC3)[C@@H](O)[C@H]1O | human | 4 mg twice daily, multiple dose, geometric mean | 437 ng·h/mL |
| CC(C)NC(=O)COc1cccc(-c2nc(Nc3ccc4[nH]ncc4c3)c3ccccc3n2)c1 | human male, plasma | oral, 200 mg, day 5, fed, alone, geometric mean | 8490 ng·h/mL |
| Cc1noc(C)c1-c1cc(C(O)(c2ccccn2)c2ccccn2)c2nc(C3CC3)[nH]c2c1 | human, fasted, plasma | oral, 9 mg once daily, cycle 1 day 8 | 7220 ng·h/mL |
| COC[C@@H](c1ccc(C(F)(F)F)cc1)N1CCN(C2(C)CCN(C(=O)c3c(C)ncnc3C)CC2)C[C@@H]1C | human | oral, 5 mg once daily, steady state, population PK, together with: ritonavir | 1170 ng·h/mL |

Some of these lines once more:
| SMILES | system | setting | AUC(0-tau) |
| --- | --- | --- | --- |
| Cc1noc(C)c1-c1cc(C(O)(c2ccccn2)c2ccccn2)c2nc(C3CC3)[nH]c2c1 | human, fasted, plasma | oral, 9 mg once daily, cycle 1 day 8 | 7220 ng·h/mL |
